# Published values gathered from unrelated publications.
# Every numbered part comes from another study and shows a few of its results, in no order. Positions count from the first letter of the parent shown.

# Block 1
# Target: CCNA1, cyclin fold, Cln2 fusion (human)
# Technique: yeast growth competition, sequencing
# Sample: yeast
# Notes: weak parent motif
# Relative to: not given
# Direction: higher = stronger binding
# Starting sequence: RB1 docking peptide (human); PKPLKKLRFDIEG; partner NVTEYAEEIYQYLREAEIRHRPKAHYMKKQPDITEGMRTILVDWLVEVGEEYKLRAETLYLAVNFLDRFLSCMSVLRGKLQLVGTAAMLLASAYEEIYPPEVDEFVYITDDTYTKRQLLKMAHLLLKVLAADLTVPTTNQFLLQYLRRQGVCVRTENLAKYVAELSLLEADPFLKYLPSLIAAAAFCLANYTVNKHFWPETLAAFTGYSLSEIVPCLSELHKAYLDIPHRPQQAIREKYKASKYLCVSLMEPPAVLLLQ
Substitution,normalised enrichment score
P3M,0.253
K6P,0.177
E12T,0.577
R8T,0.487
D10W,0.221
R8K,0.248
L4D,0.692
K5V,-0.00546
E12K,-0.13
P3E,0.54
R8N,0.556
G13R,0.571
L4R,0.315
G13S,-0.119
L7M,0.0946
P3D,0.25
F9S,0.19
R8C,0.0897
L4V,0.216
K5C,0.0898
G13Y,-0.365
R8L,-0.0381
K5R,0.0611

# Block 2
# Target: Sal-like protein 4, full length isoform A (SALL4, Homo sapiens, UniProt Q9UJQ4, residues 1-1053)
# Chain of UniProt Q9UJQ4 (whole entry, looked up): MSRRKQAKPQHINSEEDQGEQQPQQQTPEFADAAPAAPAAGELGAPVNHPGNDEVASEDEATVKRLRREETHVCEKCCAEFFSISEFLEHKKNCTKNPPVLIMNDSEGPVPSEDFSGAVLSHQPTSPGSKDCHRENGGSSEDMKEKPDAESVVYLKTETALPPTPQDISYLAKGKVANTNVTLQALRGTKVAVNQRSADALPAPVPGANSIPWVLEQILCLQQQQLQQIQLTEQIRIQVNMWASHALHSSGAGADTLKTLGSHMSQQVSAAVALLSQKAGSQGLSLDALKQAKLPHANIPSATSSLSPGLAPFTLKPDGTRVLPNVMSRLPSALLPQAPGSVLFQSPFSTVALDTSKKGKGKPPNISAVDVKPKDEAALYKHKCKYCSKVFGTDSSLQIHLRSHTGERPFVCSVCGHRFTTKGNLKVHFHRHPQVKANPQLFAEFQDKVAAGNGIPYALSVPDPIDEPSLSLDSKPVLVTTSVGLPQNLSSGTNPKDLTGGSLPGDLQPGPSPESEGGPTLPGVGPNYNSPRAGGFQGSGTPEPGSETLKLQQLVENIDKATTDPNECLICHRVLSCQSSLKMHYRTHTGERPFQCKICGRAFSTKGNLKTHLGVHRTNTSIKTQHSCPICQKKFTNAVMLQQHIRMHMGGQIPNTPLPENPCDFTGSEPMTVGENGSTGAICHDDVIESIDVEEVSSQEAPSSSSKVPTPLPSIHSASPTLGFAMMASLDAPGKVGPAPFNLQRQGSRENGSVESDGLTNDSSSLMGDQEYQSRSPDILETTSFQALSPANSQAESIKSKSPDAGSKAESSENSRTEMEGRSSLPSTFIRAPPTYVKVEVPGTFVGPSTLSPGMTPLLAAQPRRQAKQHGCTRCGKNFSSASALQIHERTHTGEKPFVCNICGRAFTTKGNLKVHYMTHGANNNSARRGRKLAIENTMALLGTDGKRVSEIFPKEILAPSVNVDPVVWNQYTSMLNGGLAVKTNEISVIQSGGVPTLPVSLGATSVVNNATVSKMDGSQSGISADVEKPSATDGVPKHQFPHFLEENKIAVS
# Technique: universal PBM
# Molecule type: double-stranded DNA, one strand shown
# Sample: in vitro
# Tested at: 600 nM
# Notes: 8-mer, flanks averaged, mean of replicates
# Direction: higher = stronger binding
Sequence,E-score
GACTAGTA,0.0825
CCATTAAC,0.245
CTGTAAAC,0.277
CAGGGGGG,-0.458
AATTAATC,0.289
CGCAGCGA,-0.302
GAAGCGGC,-0.341
CCACTCCC,-0.194
GCAAACGA,0.135
GCCGGGTA,-0.343
ACCGGCTG,-0.429
ACTTATCA,0.21
GAGAACCC,-0.233
GTTTAAAC,0.186
CCGTGCTC,-0.254
AACGACGA,0.0296
AATCTAAG,0.105
AGGCCCCG,-0.376

# Block 3
# Target: Histone acetyltransferase KAT6A, winged helix 1, GST fusion (KAT6A, Homo sapiens, UniProt Q92794, residues 1-85)
# Technique: protein binding microarray
# Molecule type: double-stranded DNA, one strand shown
# Sample: in vitro
# Tested at: not given
# Notes: 8-mer, flanks averaged, mean of 2 arrays, mostly near background
# Relative to: not given
# Direction: higher = stronger binding
# Target sequence (chain): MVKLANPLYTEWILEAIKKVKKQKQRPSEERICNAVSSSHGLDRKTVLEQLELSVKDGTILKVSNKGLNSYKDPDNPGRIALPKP
Sequence,E-score
ATCCCCTA,-0.183
AGAATTAG,-0.226
CATAACTA,-0.00608
ACATCGGA,-0.0776
ATTACGTG,-0.0257
GGTCGATA,-0.0351
CTAATAAC,-0.0671
AGGTATGA,-0.136
GCCTTTGA,-0.0602
CAATTCAG,-0.2
GAGGCTAC,-0.0878
AATTGGGA,-0.181
ATGTTTCG,0.0225
CCGTAGAG,0.11
ATGGGAAG,-0.244
CCGGCAGC,0.389
CGTGGGAA,0.032
CTTCTGGA,-0.192

# Block 4
# Target: ABI1, truncated, D143A, DHFR fusion (Arabidopsis thaliana)
# Technique: DHFR PCA, deep sequencing
# Sample: yeast
# Notes: methotrexate growth selection, single substitutions
# With: (+)-ABA 0.11 µM
# Relative to: wild-type fitted maximum
# Direction: higher = stronger binding
# Starting sequence: PYL1, truncated, DHFR fusion (Arabidopsis thaliana); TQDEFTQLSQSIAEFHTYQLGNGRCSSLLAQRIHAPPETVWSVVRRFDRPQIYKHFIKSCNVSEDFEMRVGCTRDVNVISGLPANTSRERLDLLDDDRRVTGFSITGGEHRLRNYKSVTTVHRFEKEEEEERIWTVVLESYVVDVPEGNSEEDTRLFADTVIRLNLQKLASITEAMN
Substitution,relative binding score [%]
D96A,-5.97
C60V,43.3
I33D,-0.855
E147I,8.74
S117E,-2.92
E147L,21.5
E64H,28.5
I79N,7.75
S63D,36.3
I52S,17.4
E152Y,9.84
D48F,13.7
D3A,36.9
Q167Y,-0.445
R69G,12.1
L166R,6.81
I79H,25.4
G21N,18.9
E127W,22.3
G108A,3.13
A35E,4.52
V143I,0.46
R113F,-1.16
E67S,20.6
E152H,13.9

# Block 5
# Target: UBE2G2 UBC core domain (UniProt P60604)
# Technique: yeast two-hybrid
# Sample: yeast
# Notes: mostly zero background
# Relative to: not given
# Direction: higher = stronger interaction
# B1: TRIM11 RING domain (UniProt Q96F44); chain LSTNLQEEATCAICLDYFTDPVMTDCGHNFCRECIRRCWGQPEGPYACPECRELSPQRNLRP
# B2: HLTF RING domain (UniProt Q14527); chain LILSSGSDEECAICLDSLTVPVITHCAHVFCKPCICQVIQNEQPHAKCPLCRNDIHEDNLLE
# B3: TRIM41 RING domain (UniProt Q8WV44); chain PVQTLQEEAVCAICLDYFTDPVSIGCGHNFCRVCVTQLWGGEDEEDRDELDREEEEEDGEEE
# B4: RING1 RING domain (UniProt Q06587); chain SPRSLHSELMCPICLDMLKNTMTTKECLHRFCSDCIVTALRSGNKECPTCRKKLVSKRSLR
# B5: RNF6 RING domain (UniProt Q9Y252); chain NSIDSELGKICSVCISDYVTGNKLRQLPCMHEFHIHCIDRWLSENCTCPICRQPVLGSNIAN
# B6: VPS8 RING domain (UniProt Q8N3P4); chain TRGLNPKQDYCSICLQQYKRRQEMADEIIVFSCGHLYHSFCLQNKECTVEFEGQTRWTCYKCSSSNKVGKLSE
# B7: RUFY1 RING domain (UniProt Q96T51); chain QALKGHAWLKDDEATHCRQCEKEFSISRRKHHCRNCGHIFCNTCSSNELALPSYPKPVRVCDSCHTLLLQRCSSTAS
# B8: RNF186 RING domain (UniProt Q9NXI6); chain HSGSTECDLECLVCREPYSCPRLPKLLACQHAFCAICLKLLLCVQDNTWSITCPLCRKVTAVPGGLI
# B9: MARCHF1 RING domain (UniProt Q8TCQ1); chain TAPRSQSRLSVCPSTQDICRICHCEGDEESPLITPCRCTGTLRFVHQSCLHQWIKSSDTRCCELCKYDFIMETKLKPLRKWE
# Residues (chain): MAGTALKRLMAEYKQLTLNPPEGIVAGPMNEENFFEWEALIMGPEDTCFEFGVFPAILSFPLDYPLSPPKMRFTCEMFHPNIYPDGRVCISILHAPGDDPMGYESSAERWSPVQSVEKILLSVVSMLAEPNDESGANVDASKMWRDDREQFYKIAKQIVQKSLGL
Sequence,lacZ reporter activity
B1 (TRIM11 RING domain),0
B2 (HLTF RING domain),0
DDVLTKDAGECVICLEELLQGDTIARLPCLCIYHKSCIDSWFEVNRSCPEHPAD (ZNRF1 RING domain (UniProt Q8ND25)),0
LVKDFNPYITCYICKGYLIKPTTVTECLHTFCKTCIVQHFEDSNDCPRCGNQVHETNPLE (PCGF5 RING domain (UniProt Q86SE9)),0
EIKEYKARLTCPCCNTRKKDAVLTKCFHVFCFECVRGRYEARQRKCPKCNAAFGAHDFHR (RNF40 RING domain (UniProt O75150)),0
B3 (TRIM41 RING domain),0
ASPKIFQKTKCSICNSALELPSVHFLCGHSFHQHCFESYSESDADCPTCLPENRKVMDMI (VPS11 RING domain (UniProt Q9H270)),0
B4 (RING1 RING domain),0
B5 (RNF6 RING domain),0
B6 (VPS8 RING domain),0
ASEEEFQFLRCQQCQAEAKCPKLLPCLHTLCSGCLEASGMQCPICQAPWPLGADTP (PML RING domain (UniProt P29590)),0
B7 (RUFY1 RING domain),16100
B8 (RNF186 RING domain),17100
B9 (MARCHF1 RING domain),0

# Block 6
# Target: Prothrombin, mature alpha-thrombin (F2, Homo sapiens, UniProt P00734)
# Technique: aptamer microarray, sandwich
# Molecule type: DNA with 2'F-ANA
# Sample: in vitro
# Tested at: 200 nM
# Notes: whole 15-mer aptamer, many near background
# With: Cy3 exosite-II aptamer, 400 nM
# Direction: higher = stronger binding
# Sequence: GGTTGGTGTGGTTGG
Modification,mean fluorescence intensity
2'F-ANA at 3 5 6 10 11 13 14 15,49.5 a.u.
2'F-ANA at 4 5 6 7 8 10 11 12 14,60.4 a.u.
2'F-ANA at 2 3 5 7 10 11 12 14 15,88.8 a.u.
2'F-ANA at 1 3 9 11 15,244 a.u.
2'F-ANA at 1 2 5 6 7 9 11 13 14 15,49.9 a.u.
2'F-ANA at 1 2 5 6 8 10 12 13 14 15,91.6 a.u.
2'F-ANA at 3 4 6 7 10 13 14 15,177 a.u.
2'F-ANA at 1 2 5 7 8 11 12 13,77.1 a.u.
2'F-ANA at 1 2 4 5 9 10 13 14,44 a.u.
2'F-ANA at 3 5 7 11 12 13 15,167 a.u.
2'F-ANA at 1 2 3 4 5 8 10 11 12 13 14,50.2 a.u.
2'F-ANA at 4 5 6 8 9 12 15,139 a.u.
2'F-ANA at 4 7 9 12 13 14 15,94.3 a.u.
2'F-ANA at 2 6 10 11 12 13 15,140 a.u.
2'F-ANA at 1 2 6 7 8 9 10 11 12 14,50.1 a.u.
2'F-ANA at 1 2 3 6 7 11 13 15,232 a.u.
2'F-ANA at 2 4 5 11 12 13,84.9 a.u.
2'F-ANA at 2 3 5 6 8 10 12 13,62.3 a.u.
2'F-ANA at 3 4 7 8 9 11,753 a.u.
2'F-ANA at 1 2 3 5 6 7 9 10 12,52.1 a.u.
2'F-ANA at 3 6 8 10 13 15,484 a.u.
2'F-ANA at 1 4 5 7 8 10 11 12,47.8 a.u.
2'F-ANA at 1 2 3 5 7 8 9 10 11 13,51.2 a.u.
2'F-ANA at 4 5 10 11,54 a.u.
2'F-ANA at 7 8 10 11 12 14,126 a.u.

# Repeated from above (block 5):
Sequence,lacZ reporter activity
B1 (TRIM11 RING domain),0
B2 (HLTF RING domain),0
DDVLTKDAGECVICLEELLQGDTIARLPCLCIYHKSCIDSWFEVNRSCPEHPAD (ZNRF1 RING domain (UniProt Q8ND25)),0
LVKDFNPYITCYICKGYLIKPTTVTECLHTFCKTCIVQHFEDSNDCPRCGNQVHETNPLE (PCGF5 RING domain (UniProt Q86SE9)),0
EIKEYKARLTCPCCNTRKKDAVLTKCFHVFCFECVRGRYEARQRKCPKCNAAFGAHDFHR (RNF40 RING domain (UniProt O75150)),0
B3 (TRIM41 RING domain),0
ASPKIFQKTKCSICNSALELPSVHFLCGHSFHQHCFESYSESDADCPTCLPENRKVMDMI (VPS11 RING domain (UniProt Q9H270)),0
B4 (RING1 RING domain),0
B5 (RNF6 RING domain),0
B6 (VPS8 RING domain),0
ASEEEFQFLRCQQCQAEAKCPKLLPCLHTLCSGCLEASGMQCPICQAPWPLGADTP (PML RING domain (UniProt P29590)),0
B7 (RUFY1 RING domain),16100
B8 (RNF186 RING domain),17100
B9 (MARCHF1 RING domain),0
